Assay results collected from several papers.
Compare with care: the assays were run in different laboratories. Values joined by “and” are separate records of one study, mostly repeats; a detail may differ. ± marks the error that the study gave.

SMILES	target or system	test	test system	setting	how to read	measurement	result
O=c1ccn([C@@H]2O[C@H](CO)[C@@H](O)[C@H]2O)c(=S)[nH]1	human cytochrome c oxidase subunit I	item: cytochrome c oxidase subunit I	HepG2	120 h	–	IC50	> 50 µM
O=C1NC(=O)[C@](CNC(=O)c2cnn(-c3ccccc3)n2)(C2CC2)N1	kallikrein	–	–	concentration not given	–	activity	inactive
COc1ncccc1-c1cnn2ccc(N3CCN(C(=O)OC(C)C)CC3)nc12	PDE4	inhibitor	–	–	–	IC50	8.3 µM
O=C(N[C@H](CO)[C@H](O)c1ccc([N+](=O)[O-])cc1)C(Cl)Cl	human cytochrome c oxidase subunit I	item: cytochrome c oxidase subunit I	HepG2	120 h	–	IC50	0.97 ± 0.06 µM
Oc1cc(Cl)ccc1Oc1ccc(Cl)cc1Cl	bivalent nanobody T1-T1 (Bactrian camel)	ELISA, IC50-based	–	concentration not given, coating antigen T1/H1-BSA	–	cross-reactivity	100%
NCCc1ccc(O)cc1	SAR11_0271 protein (Candidatus Pelagibacter sp.)	thermal stabilisation, differential scanning fluorimetry	–	–	–	ΔTm	7.3 °C
Cn1c(=O)cnc2ccc(F)c(CCNC[C@H]3CN(c4cnc5c(n4)NC(=O)CO5)C(=O)O3)c21	human DNA topoisomerase II	decatenation activity, inhibitor	–	–	–	IC50	> 90 µM
OC1CCN(c2ncnc3[nH]cc(-c4cccc(Cl)c4)c23)CC1	MOB1 (human)	Western blot, item: phospho-MOB1 Thr35	HEK293	concentration not given, together with: H2O2	–	MOB1 phosphorylation	decreased
NCCc1ccccc1	SAR11_0271 protein (Candidatus Pelagibacter sp.)	thermal stabilisation, differential scanning fluorimetry	–	–	–	ΔTm	8.1 °C
CCCCCCCCCCCCCC(=O)O[C@@H]1[C@@H](C)[C@@]2(O)[C@@H](C=C(CO)C[C@]3(O)C(=O)C(C)=C[C@@H]23)[C@@H]2C(C)(C)[C@]12OC(C)=O	mouse phorbol ester receptor	radioligand binding	–	–	–	IC50	0.00108 µM
Cn1c(=O)ccc2ccc(F)c(CCNC[C@H]3CN(c4ccc5c(n4)NC(=O)CO5)C(=O)O3)c21	human DNA topoisomerase II	decatenation activity, inhibitor	–	–	–	IC50	> 120 µM
c1ccc(C(NCCNC(c2ccccc2)c2ccccc2)c2ccccc2)cc1	KATP potassium channel, hamster	binding	–	10 µM, Eurofins selectivity panel	–	inhibition	6%
Cn1c(=O)ccc2ccc(F)c(CCNC[C@H]3CN(c4cnc5c(n4)NC(=O)CO5)C(=O)O3)c21	human DNA topoisomerase II	decatenation activity, inhibitor	–	–	–	IC50	> 120 µM
O=C(Nc1cccnn1)N1CCN([C@@H]2CCOc3cc(C(F)(F)F)ccc32)CC1	androgen receptor (human)	binding	–	20 µM	–	inhibition	2%
CCN(CC)c1ccn2c(=O)n(CCOC(=O)NCc3cccc(-c4c[nH]cn4)c3)c(=O)nc2c1	human transthyretin WIL* T46L/F49Y, fluorescein-labelled	fluorescence polarization	–	–	–	kinetic stabilization	inactive
O=C(Nc1cccnn1)N1CCC(=Cc2cccc(Oc3ccc(C(F)(F)F)cn3)c2)CC1	PDGF receptor	–	–	concentration not given	–	inhibition	17% and 20%
NC(=O)c1ncn([C@@H]2O[C@H](CO)[C@@H](O)[C@H]2O)c1N	human coronavirus OC43	virus-induced cell killing	MRC-5	screen	–	maximum inhibition	6.43%
C[C@H](Nc1ncnc2[nH]cnc12)c1nc2ccc(F)cc2c(=O)n1-c1ccccc1	NLRP3 inflammasome (mouse)	–	mouse BMDM	10 µM	–	inhibition	13.2%
CC(C)(O)C(=O)Nc1ccc([N+](=O)[O-])c(C(F)(F)F)c1	androgen receptor pathway	agonist	–	concentration not given	direction not given	AUC agonist score	0.00113
O=C(O)Cc1c[nH]cn1	Nedd8-cullin1 interaction	neddylation, AlphaScreen	–	100 µM	–	inhibition	-36%
CCOc1ccccc1-n1c(C(C)N2CCN(C(=O)COc3ccc(Cl)cc3)CC2)nc2ccccc2c1=O (centres unmarked)	human coronavirus OC43	virus-induced cell killing	MRC-5	screen	–	maximum inhibition	15.5%
COc1cc(Nc2ncc(F)c(Nc3ccc4c(n3)NC(=O)C(C)(C)O4)n2)cc(OC)c1OC	PDGF receptor	–	–	–	–	IC50	> 10 µM
c1cncc([C@@H]2CCCN2)c1	sigma receptor 1	radioligand binding	–	50 µM	–	inhibition	-6.93%
CC(C)CC(=O)OC[C@H]1O[C@@](C#N)(c2ccc3c(N)ncnn23)[C@H](O)[C@@H]1O	kainate glutamate receptor rat	radioligand binding	–	20 µM	–	inhibition	0%
C=C[C@H]1CN2CC[C@]3(C(=O)Nc4ccccc43)[C@@H]2C[C@@H]1/C(=C\OC)C(=O)OC	NLRP3 inflammasome (mouse)	–	mouse BMDM	10 µM	–	inhibition	36.9%
C[C@H](C(=O)N[C@H]1COc2ccccc2[C@@H]1S(C)(=O)=O)c1ccc(F)cc1	5-HT1 receptor, rat	binding	–	10 µM, Eurofins selectivity panel	–	inhibition	8%
